Measurements from different studies.
Compare with care: the assays were run in different laboratories.
LRRK2 G2019S: Leucine-rich repeat serine/threonine-protein kinase 2 (LRRK2, Homo sapiens, UniProt Q5S007, G2019S)
LRRK2: Leucine-rich repeat serine/threonine-protein kinase 2 (LRRK2, Homo sapiens, UniProt Q5S007)

Cc1ccc(-c2c(/C=C(\C#N)C(=O)NC(C)C)n(CCCO)c3ncnc(N)c23)cc1
remaining binding (LRRK2 G2019S; cell-free assay, competition with immobilised ligand; 1 µM): 100%

O=C(Nc1ccc(Oc2ncnc3[nH]cc(-c4ccccc4)c23)c(F)c1)c1c2n(n(-c3cc(F)ccc3F)c1=O)CCCC2
inhibition (LRRK2; enzyme activity, inhibitor; 0.5 µM): 4%

COc1ccc(NC(=O)Nc2ccc3c(c2)C(=O)N(C(C)CO)CC(C)C(CN(C)Cc2ccc4c(c2)OCO4)O3)cc1 (stereo not drawn)
remaining activity (LRRK2; kinase activity, KinaseProfiler; 0.03 µM, species human; relative to: control): 104%

C=CC(=O)N1CCc2ccc(-n3c(=O)ccc4cnc5ccc(-c6cnn(C)c6)cc5c43)cc21
remaining binding (LRRK2; KINOMEscan; 1 µM; relative to: DMSO control): 99%

CCn1cc(C(=O)O)c(=O)c2c(N)c(F)c(NC3CCCCC3)cc21
inhibition (LRRK2; kinase activity; 0.1 µM, together with: ATP at Km): -10.7%

Cc1cnc2nc1Nc1cccc(c1)COC/C=C/COCc1cc(ccc1OCCN1CCOCC1)N2
remaining binding (LRRK2; binding; 0.1 µM): 100%

CCN1CCN(Cc2ccc(C(=O)Nc3ccc(C)c(NCc4cnc5[nH]ccc5c4OC)c3)cc2C(F)(F)F)CC1
remaining binding (LRRK2 G2019S; binding, competition with immobilised ligand; 1 µM): 89%

C=CC(=O)N1CCCC(n2c(=O)c3ncccc3n(Cc3ccc(Oc4ccccc4)cc3)c2=O)C1 (stereo not drawn)
remaining binding (LRRK2; cell-free assay, competition with immobilised ligand; 1 µM): 72%

COc1c(Cl)cccc1Nc1c(-c2ccncc2C#C[C@@]2(C)CCCN2C(=O)/C=C/CN(C)C)[nH]c2c1C(=O)NCC2
remaining binding (LRRK2 G2019S; binding, competition with immobilised ligand; 3 µM): 73%

CC(C)=CC1OC(C)(C)C2C=C3C(=O)C(Cl)=CC(O)C3C3C(O)C4OC4C(=O)C132 (stereo not drawn)
remaining binding (LRRK2 G2019S; cell-free assay, competition with immobilised ligand; 10 µM): 95%

C[C@H]1CN(C(=O)c2cn(-c3ccnc(N)n3)c3cc(C#CC4(O)CCCCC4)ccc23)CCN1
inhibition (LRRK2; enzyme activity, inhibitor; 1 µM): 8%

Nc1ncc2c(n1)-c1c([nH]c3ccc(C4=CCOCC4)cc13)CCC2
remaining binding (LRRK2 G2019S; binding, competition with immobilised ligand; 1 µM): 100%
